Published values from different studies.
A part holds a random share of what one study measured. Positions count from the first letter of the parent shown.
Sequence of UniProt Q13555 (whole entry, looked up): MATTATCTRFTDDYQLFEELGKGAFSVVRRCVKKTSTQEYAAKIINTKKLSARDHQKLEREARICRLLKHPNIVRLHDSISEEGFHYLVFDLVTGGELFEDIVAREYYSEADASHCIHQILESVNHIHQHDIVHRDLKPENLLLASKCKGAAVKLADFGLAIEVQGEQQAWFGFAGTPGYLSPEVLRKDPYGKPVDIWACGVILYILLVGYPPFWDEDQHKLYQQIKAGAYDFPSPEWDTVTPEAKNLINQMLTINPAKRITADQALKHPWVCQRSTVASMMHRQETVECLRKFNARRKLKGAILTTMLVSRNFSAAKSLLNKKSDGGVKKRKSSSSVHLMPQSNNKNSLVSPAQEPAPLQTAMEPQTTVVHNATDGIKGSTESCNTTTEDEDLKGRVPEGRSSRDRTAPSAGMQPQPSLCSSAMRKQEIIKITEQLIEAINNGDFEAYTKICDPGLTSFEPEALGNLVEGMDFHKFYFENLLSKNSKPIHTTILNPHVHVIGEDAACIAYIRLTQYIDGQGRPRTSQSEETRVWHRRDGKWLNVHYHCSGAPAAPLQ
Sequence of UniProt O15146 (whole entry, looked up): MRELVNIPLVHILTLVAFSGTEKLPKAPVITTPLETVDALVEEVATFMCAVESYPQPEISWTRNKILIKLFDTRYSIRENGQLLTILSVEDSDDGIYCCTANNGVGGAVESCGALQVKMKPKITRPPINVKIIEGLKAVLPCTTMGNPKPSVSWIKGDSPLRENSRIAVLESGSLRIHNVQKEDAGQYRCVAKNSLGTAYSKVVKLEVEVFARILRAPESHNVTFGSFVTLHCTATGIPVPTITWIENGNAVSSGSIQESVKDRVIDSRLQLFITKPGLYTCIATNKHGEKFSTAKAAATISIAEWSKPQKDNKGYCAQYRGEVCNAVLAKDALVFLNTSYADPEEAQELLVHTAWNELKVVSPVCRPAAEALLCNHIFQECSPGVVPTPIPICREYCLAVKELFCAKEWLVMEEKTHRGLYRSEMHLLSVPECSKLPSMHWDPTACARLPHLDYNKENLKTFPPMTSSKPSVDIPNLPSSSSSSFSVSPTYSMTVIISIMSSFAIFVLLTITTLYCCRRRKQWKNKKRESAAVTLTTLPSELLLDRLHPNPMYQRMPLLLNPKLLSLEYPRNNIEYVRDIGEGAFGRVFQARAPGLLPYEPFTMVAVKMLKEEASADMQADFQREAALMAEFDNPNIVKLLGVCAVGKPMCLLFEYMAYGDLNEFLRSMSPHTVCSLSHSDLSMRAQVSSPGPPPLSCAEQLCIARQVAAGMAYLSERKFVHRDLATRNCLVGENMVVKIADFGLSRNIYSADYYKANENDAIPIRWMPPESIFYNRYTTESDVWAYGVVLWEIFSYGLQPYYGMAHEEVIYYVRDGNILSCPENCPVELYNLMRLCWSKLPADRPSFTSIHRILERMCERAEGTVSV
Sequence of UniProt P78362 (whole entry, looked up): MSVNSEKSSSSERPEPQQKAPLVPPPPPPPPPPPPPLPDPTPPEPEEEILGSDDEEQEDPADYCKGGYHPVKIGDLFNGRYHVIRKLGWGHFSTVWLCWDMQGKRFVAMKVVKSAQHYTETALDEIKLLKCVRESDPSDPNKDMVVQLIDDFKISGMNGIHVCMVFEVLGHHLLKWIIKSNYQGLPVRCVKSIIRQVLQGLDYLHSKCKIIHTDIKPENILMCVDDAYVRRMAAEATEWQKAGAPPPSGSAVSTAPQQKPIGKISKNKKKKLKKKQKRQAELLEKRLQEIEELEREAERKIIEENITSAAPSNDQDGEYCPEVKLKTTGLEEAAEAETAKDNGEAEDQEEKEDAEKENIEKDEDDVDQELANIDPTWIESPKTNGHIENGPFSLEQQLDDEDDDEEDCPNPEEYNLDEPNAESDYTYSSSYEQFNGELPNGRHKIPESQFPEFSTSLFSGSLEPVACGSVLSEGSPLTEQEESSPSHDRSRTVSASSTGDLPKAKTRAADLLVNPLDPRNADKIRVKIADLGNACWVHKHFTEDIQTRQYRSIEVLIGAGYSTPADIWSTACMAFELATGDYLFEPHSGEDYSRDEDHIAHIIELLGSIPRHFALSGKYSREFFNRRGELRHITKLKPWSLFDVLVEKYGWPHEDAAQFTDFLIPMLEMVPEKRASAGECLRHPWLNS
Sequence of UniProt Q15569 (whole entry, looked up): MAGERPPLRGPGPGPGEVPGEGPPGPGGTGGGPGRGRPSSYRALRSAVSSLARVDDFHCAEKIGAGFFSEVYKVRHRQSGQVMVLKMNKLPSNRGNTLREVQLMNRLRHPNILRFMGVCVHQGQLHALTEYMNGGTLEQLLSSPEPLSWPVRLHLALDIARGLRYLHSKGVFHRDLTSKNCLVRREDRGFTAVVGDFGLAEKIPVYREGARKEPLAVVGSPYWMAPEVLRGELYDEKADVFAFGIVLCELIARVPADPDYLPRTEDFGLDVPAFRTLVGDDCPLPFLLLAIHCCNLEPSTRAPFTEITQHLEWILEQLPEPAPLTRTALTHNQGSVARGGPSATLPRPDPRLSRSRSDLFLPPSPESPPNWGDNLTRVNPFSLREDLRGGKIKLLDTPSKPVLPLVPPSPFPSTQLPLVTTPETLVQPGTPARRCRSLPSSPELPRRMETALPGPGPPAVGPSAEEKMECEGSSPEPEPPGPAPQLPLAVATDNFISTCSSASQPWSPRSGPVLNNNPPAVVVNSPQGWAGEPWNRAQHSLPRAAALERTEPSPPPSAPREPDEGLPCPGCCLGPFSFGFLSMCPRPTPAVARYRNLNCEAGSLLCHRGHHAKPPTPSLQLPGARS

Series 1
SMILES: Cc1noc([C@H]2C[C@@H](c3ccc(C(F)(F)F)cc3)CN(C(=O)N3CCS(=O)(=O)C3)C2)n1
Technique: competition with immobilised ligand
Tested at: 1 µM
target	observed	remaining binding [%]
Calcium/calmodulin-dependent protein kinase type II subunit gamma (CAMK2G, Homo sapiens, UniProt Q13555)	cell-free assay	100
Tyrosine-protein kinase ABL1, non-phosphorylated (ABL1, Homo sapiens, UniProt P00519, H396P)	cell-free assay	100
Dual specificity testis-specific protein kinase 1 (TESK1, Homo sapiens, UniProt Q15569)	cell-free assay	91
SRSF protein kinase 2 (SRPK2, Homo sapiens, UniProt P78362)	cell-free assay	100
Tyrosine-protein kinase ABL1, non-phosphorylated (ABL1, Homo sapiens, UniProt P00519, F317I)	binding	100
Receptor-interacting serine/threonine-protein kinase 1 (RIPK1, Homo sapiens, UniProt Q13546)	cell-free assay	100
Muscle, skeletal receptor tyrosine-protein kinase (MUSK, Homo sapiens, UniProt O15146)	cell-free assay	100
Phosphatidylinositol 5-phosphate 4-kinase type-2 gamma (PIP4K2C, Homo sapiens, UniProt Q8TBX8)	cell-free assay	89
Tyrosine-protein kinase ABL1, non-phosphorylated (ABL1, Homo sapiens, UniProt P00519)	cell-free assay	71
Inhibitor of nuclear factor kappa-B kinase subunit beta (IKBKB, Homo sapiens, UniProt O14920)	cell-free assay	80
Mitogen-activated protein kinase kinase kinase kinase 5 (MAP4K5, Homo sapiens, UniProt Q9Y4K4)	cell-free assay	100

Series 2
Target: Ras GTPase-activating protein-binding protein 1, full length (G3BP1, Homo sapiens, UniProt Q13283)
Sequence of UniProt Q13283 (whole entry, looked up): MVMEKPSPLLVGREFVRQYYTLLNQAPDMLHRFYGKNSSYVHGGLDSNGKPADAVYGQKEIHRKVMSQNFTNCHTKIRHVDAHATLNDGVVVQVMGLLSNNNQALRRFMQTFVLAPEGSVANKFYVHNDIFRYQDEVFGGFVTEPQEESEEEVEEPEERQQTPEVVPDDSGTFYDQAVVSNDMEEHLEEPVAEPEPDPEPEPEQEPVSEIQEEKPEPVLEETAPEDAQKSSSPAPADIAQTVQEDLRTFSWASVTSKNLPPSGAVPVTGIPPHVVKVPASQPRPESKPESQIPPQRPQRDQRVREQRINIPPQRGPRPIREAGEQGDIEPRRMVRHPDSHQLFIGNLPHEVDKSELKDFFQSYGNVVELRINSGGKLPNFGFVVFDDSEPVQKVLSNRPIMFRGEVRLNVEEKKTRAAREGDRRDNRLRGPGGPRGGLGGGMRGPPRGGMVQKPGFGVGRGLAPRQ
Technique: RNA Bind-n-Seq
Molecule type: RNA
Matrix: in vitro
Tested at: 200 nM
Setting: whole 134-nt RNA, ends assumed
With: 150 mM LiCl
Baseline: input library
Reading: higher = stronger binding
All molecules: 7-deaza-guanosine replaces G
Constant ends, left off below: GGGAGUUCUACAGUCCGACGAUC … UGGAAUUCUCGGGUGUCAAGG
Sequence	log2 enrichment
GUCCUGUGCUACACAUCGUAUGUACCGAAUCGGGGUGGGGUUUUUUUGGGGUUUGGGGAAAGUAUUAUGUUACGCCGUUCGGAUCUGCAC	0.495
UUAAAGUAGAGGAACAAAAAGAAGAACAGAAGGAGUUAGAGAAAUCUGAAAAAGAAGAGGAUGAGGAUGAUGAUAGGAAAUCUGAAGACG	-0.77
AGUCCUGUGCUACACAUCGUAUGUACCGAAUCGGGUUUUUGGGAAAAAAAGGGUGGGAAAGUAUUAUGUUACGCCGUUCGGAUCUGCACU	-2.01
CCUGUGCUACACAUCGUAUGUACCGAAUCGGGGUUUUUUUGGUUUUUUUGGUUUUUUUGGAAAGUAUUAUGUUACGCCGUUCGGAUCUGC	1.03
CUCAAGUCCUGUGCUACACAUCGUAUGUACCGAAUCGGGUUGGGUUGGUUGGGAAAGUAUUAUGUUACGCCGUUCGGAUCUGCACUUCCA	0.565
ACCAUGCAGAUGGGCAUCUUUGGGAAGUGGGGCAAGGGGGGGAUAGGGAGGGGGGUAACACUUUGGGAACAGGUGGUCCCAGGUCGUUUC	0.232
CCCAUUCCAAGAUUUGCUGUUGGCAUUGUAAUAGGAAGAAAUGGAGAGAUGAUCAAAAAAAUACAAAAUGAUGCUGGUGUUCGCAUUCAG	-0.985
UGGCCCUGGUGGCAUGCGGGGAGGAAGAGGUGGCCUCAUGGAUCGUGGUGGUCCCGGUGGAAUGUUCAGAGGUGGCCGUGUUGGAGACAG	-0.451

Series 3
Target: BATF2, bZIP domain (human)
Technique: DHFR protein complementation
Matrix: yeast
Setting: single substitutions, most at no-binding floor
Baseline: wild-type JUN-FOS pair
Reading: higher = stronger binding
Starting sequence: JUN, bZIP domain (human); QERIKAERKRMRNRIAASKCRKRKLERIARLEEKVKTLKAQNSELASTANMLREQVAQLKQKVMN; partner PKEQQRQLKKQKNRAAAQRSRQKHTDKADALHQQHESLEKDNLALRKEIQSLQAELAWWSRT
Variant	binding fitness [natural log]
K36I	-0.516
A46L	-0.226
S43N	-0.278
I28V	-0.269
V56N	-1.22
A40C	-0.574
M51T	-0.215
T48M	-0.195

Series 4
Target: Serine/threonine-protein kinase MRCK alpha (CDC42BPA, Homo sapiens, UniProt Q5VT25)
Sequence of UniProt Q5VT25 (whole entry, looked up): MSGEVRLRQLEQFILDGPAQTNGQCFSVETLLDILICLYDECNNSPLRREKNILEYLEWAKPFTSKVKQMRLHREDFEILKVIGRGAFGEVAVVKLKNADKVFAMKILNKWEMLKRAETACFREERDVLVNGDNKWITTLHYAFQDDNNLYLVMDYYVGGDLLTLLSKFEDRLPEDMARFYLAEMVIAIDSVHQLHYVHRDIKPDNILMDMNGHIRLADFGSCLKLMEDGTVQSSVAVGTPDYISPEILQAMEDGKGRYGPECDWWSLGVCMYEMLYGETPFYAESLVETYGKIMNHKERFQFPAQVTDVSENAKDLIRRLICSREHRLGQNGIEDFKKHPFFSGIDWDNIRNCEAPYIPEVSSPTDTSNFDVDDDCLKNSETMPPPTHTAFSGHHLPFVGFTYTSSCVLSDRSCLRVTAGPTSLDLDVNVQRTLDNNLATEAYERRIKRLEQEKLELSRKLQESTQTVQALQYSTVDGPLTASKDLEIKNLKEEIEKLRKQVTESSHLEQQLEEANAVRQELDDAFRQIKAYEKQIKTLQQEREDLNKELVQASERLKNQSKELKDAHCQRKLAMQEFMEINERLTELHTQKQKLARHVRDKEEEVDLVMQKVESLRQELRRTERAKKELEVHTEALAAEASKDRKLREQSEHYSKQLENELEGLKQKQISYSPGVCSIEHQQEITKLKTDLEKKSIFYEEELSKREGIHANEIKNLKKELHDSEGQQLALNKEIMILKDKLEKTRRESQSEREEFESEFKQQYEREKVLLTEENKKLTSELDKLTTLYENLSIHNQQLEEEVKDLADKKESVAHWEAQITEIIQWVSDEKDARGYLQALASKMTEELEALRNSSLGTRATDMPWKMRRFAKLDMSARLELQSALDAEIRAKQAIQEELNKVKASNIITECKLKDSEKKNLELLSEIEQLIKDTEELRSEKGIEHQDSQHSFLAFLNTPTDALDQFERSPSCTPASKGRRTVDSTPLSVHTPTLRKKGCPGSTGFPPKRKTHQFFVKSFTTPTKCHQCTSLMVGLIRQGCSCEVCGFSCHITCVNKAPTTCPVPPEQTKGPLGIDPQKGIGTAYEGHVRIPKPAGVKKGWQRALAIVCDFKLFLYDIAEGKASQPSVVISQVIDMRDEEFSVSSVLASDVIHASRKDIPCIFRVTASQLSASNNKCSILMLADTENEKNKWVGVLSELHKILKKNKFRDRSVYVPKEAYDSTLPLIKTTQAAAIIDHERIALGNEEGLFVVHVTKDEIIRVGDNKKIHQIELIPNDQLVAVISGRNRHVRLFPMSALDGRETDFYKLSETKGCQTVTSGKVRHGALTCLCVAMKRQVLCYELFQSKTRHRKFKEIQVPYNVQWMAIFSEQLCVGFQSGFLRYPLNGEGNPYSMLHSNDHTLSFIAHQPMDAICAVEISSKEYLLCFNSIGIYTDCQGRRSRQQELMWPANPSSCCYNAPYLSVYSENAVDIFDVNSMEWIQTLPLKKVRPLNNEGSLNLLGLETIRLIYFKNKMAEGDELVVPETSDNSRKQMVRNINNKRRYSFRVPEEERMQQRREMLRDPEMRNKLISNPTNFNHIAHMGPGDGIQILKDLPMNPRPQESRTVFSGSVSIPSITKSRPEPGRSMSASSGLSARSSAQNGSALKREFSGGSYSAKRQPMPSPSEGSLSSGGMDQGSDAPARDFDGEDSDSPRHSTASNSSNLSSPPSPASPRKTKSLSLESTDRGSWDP
Observed: enzyme activity
Action: inhibitor
Tested at: 0.5 µM
Baseline: control
Compound	remaining activity
C#Cc1cccc(Nc2ncnc3cc(OCCOC)c(OCCOC)cc23)c1	88.5%
COc1ccc(C(=O)Nc2sc3c(c2C(N)=O)CCCC3)cc1OC	81.8%
Cc1ccc(NC(=O)c2ccc(CN3CCN(C)CC3)cc2)cc1Nc1nc(-c2cccnc2)cs1	104%

For quick reference, copied from above (series 1):
target	observed	remaining binding [%]
Dual specificity testis-specific protein kinase 1 (TESK1, Homo sapiens, UniProt Q15569)	cell-free assay	91
Inhibitor of nuclear factor kappa-B kinase subunit beta (IKBKB, Homo sapiens, UniProt O14920)	cell-free assay	80
Mitogen-activated protein kinase kinase kinase kinase 5 (MAP4K5, Homo sapiens, UniProt Q9Y4K4)	cell-free assay	100
